Measurements gathered from unrelated publications.
Every numbered part comes from another study and shows a few of its results, in no order.

Block 1
Substance: PhoQ, residues 284 288 289 292 302 303 SSTMSV
Method: Sort-seq
Item: YFP reporter
Matrix: E. coli
Setting: PhoQ-PhoP variant library
With: 10 µM Mg2+
Reference: high Mg2+ state
Reading: higher = stronger signaling
target	fold induction
PhoP, residues 12 14 15 18 19 TQALL (Escherichia coli, UniProt P23836)	3.25
PhoP, residues 12 14 15 18 19 NYFRM (Escherichia coli, UniProt P23836)	13.9
PhoP, residues 12 14 15 18 19 QYFSL (Escherichia coli, UniProt P23836)	13.7

Block 2
Target: RNA binding protein fox-1 homolog 2, RRM domain, GST-SBP tag (RBFOX2, Homo sapiens, UniProt O43251-10, residues 100-194)
Method: RNA Bind-n-Seq
Molecule type: RNA
Matrix: in vitro
Concentration: 365 nM
Setting: natural RNA segment, single round, ends assumed
Reference: no-protein control
Reading: higher = stronger binding
Shared flanks, not repeated: GGGAGUUCUACAGUCCGACGAUC … UGGAAUUCUCGGGUGCCAA
Residues (chain): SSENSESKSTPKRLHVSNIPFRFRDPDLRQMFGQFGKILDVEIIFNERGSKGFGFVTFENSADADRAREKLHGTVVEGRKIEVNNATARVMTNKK
Sequence	RBNS enrichment (R)
GUUGUGCAGUUUCAUAGAUGGGUCAGGAGGUGGACAAGUUGGGGCCAGAGAUGAUGGCAGUCCAGCAGCAACUCCCUGUGCUCCCUUCUCUUUGGGCAGAGAUUCUAUUU	0.567
AUCUGCGCGCGGCCUAGCCCGGGCCUCAUUUCUUAUCCCCGCCAAGGGUUUCCUCUCAGUCAUUUGUUUACCAGAAACAUGAAAACUGCCUGUCUGGCCGGGCCGCACUU	0.524
UGAGGCUACCCAGAGCCGGCGGGAGGACAGGAGACUGUGGGAUGUGGUCCAGGGGCCGCGGAGUGGUUUGGGGGGGAAAAGAGAUUUUUUUCUUCUCUUAAUGGGAAUCG	0.638
GCUCAACGGUGUGCCAGCUUCUGGGUCAUUCUAUGGGCAAAGAUGCUGCCUUAGUUCAGGUUUGUCAGAAGCAGGGUCUGGAAUGGGGCUUCAGCGAGGGAGUCAGGGAA	0.639
AACUCCAAAAGUGCCUUAAAGCCAGGUUUGUGUCUCCUUUCAGGAGAGAGCGUGUAACGUCAGAUUUGUGCCUGUCUCGAACAUUCUGUCCUAAUCAUACUUAAACAUCA	0.773
GGGACGCCCCCAGACCCUGACUUUCUCCUGCGUGGGCCGUCUCCUCCUGCGGAAGCAGUGACCUCUGACCCCUGGUGACCUUCGCUUUGAGUGCCUUUUGAACGCUGGUC	0.557
AGGCCAUAUGUAAAAACCCUUCCAAUGCCUAAGUGUCUUUCUCCUGCAACUCCAAACCCAGACUCGCCACUUUGGGUGCACAGGUGGUUAGGUCAGCCAACUGGUUCUGC	0.428
CAUUGAGACUUAGUGACCAUCUGGGUCCAUGUUAAUAUCAUAUAAUAGCAAAUUCCUUUCAGAAGUCUCUAGCUUUAGUGCUAAAAUACUACUGAGAAAGGAACUAGGUA	0.32

Block 3
Target: PABPC1L2, full length, GST fusion (mouse, UniProt A0ABA7IW68)
Method: RNAcompete
Molecule type: RNA
Matrix: in vitro
Concentration: 20 nM
Setting: 7-mer, probes averaged, single round
Reference: mean of 7-mers
Reading: higher = stronger binding
Residues (chain): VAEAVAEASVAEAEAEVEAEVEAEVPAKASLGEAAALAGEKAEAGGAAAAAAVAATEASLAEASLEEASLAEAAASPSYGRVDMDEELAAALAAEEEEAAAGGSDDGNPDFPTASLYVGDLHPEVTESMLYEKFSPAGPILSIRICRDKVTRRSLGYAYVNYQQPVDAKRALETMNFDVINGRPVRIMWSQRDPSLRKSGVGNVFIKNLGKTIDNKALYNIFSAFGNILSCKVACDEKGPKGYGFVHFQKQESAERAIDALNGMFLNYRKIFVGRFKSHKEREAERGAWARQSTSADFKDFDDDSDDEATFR
Sequence	7-mer Z-score
AACGCCA	0.017
GAAGUAG	-0.0971
CUGAAGU	-0.237
UGGGCGC	-0.0953
UCGAAAG	-0.184
GACACGC	-0.168
ACCUCAU	-0.166
AAACCUG	0.562
UUGCUAA	-0.0645
ACGAGGC	0.0696
GGUAGGA	0.175
UGUGGUU	-0.202
AUUGUCC	-0.231
CUCUCUG	-0.304
GAUGUCU	-0.213
AAGAUUU	0.345
GUCGCAC	-0.329
GAUUCUC	-0.318
UGGUCCG	-0.128
GCGAUAC	0.0406
UGGAUGG	0.0134
GAGCUAC	-0.117
CCUUAAU	-0.342
AUGUGCG	0.109
ACAAGGA	0.432

Block 4
Target: Ras GTPase-activating protein-binding protein 1, C-terminal RGG region (G3BP1, Homo sapiens, UniProt Q13283)
Sequence of UniProt Q13283 (whole entry, looked up): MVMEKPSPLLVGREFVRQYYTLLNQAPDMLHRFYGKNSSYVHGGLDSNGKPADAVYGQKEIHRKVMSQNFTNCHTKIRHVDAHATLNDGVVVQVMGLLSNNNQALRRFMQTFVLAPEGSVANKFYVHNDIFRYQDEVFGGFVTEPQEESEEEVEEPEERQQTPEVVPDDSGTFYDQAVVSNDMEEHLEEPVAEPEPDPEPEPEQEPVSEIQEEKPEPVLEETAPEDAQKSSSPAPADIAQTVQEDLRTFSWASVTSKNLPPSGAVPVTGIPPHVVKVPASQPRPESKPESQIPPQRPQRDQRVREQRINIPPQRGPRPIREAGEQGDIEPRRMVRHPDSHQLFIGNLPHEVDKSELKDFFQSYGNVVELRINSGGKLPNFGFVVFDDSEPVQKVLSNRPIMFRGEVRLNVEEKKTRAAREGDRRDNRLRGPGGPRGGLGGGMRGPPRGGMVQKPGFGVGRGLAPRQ
Method: RNA Bind-n-Seq
Molecule type: RNA
Matrix: in vitro
Concentration: 1 µM
Setting: whole 134-nt RNA, ends assumed
With: 150 mM KCl
Reference: input library
Reading: higher = stronger binding
Shared flanks, not repeated: GGGAGUUCUACAGUCCGACGAUC … UGGAAUUCUCGGGUGUCAAGG
Sequence	log2 enrichment
AGUCCUGUGCUACACAUCGUAUGUACCGAAUCGGGAAAGGGUUUUUGGGAAAAAGGGAAAGUAUUAUGUUACGCCGUUCGGAUCUGCACU	-0.0302
UGGGAGGUGGAUUUUGUUUAUUUUUUUAGCUCAUUUCCAAGGGUGGGAAUUUUUUUUUAAUAUGUGUCAUGAAUAAAGUUGUUUUUGAAA	3.41
CCUGUGCUACACAUCGUAUGUACCGAAUCGGAAAAAAAGGGAAAAAAAGGGAAAAAAAGGAAAGUAUUAUGUUACGCCGUUCGGAUCUGC	-1.95
UCCUCAAGUCCUGUGCUACACAUCGUAUGUACCGAAUCGGGGUGGUGGUGGAAAGUAUUAUGUUACGCCGUUCGGAUCUGCACUUCCAGC	-0.621
AGUCCUGUGCUACACAUCGUAUGUACCGAAUCAAACCCCCCCAAACCCAAAUUUAAAAAAGUAUUAUGUUACGCCGUUCGGAUCUGCACU	-0.989
AAGUCCUGUGCUACACAUCGUAUGUACCGAAUCGGGGUUUGGGGUUUGGGUUUGGGGAAAGUAUUAUGUUACGCCGUUCGGAUCUGCACU	1.36
GCAGGAAGUAAAAACAAAUGGAAAUGCUUCGGAUAGUGGCAGGGGUGGGGGUUGCUAAUGAAAGGGUGGGAUGGGAGUGGGUAAAGAGUU	2.24
AGUCCUGUGCUACACAUCGUAUGUACCGAAUCGGCCCCCCGGCCCCCCGGCCCCCCGGAAAGUAUUAUGUUACGCCGUUCGGAUCUGCAC	-1.61
AGUCCUGUGCUACACAUCGUAUGUACCGAAUCGGGUUUUUUUGGGAGGGAAAAAGGGAAAGUAUUAUGUUACGCCGUUCGGAUCUGCACU	0.778

Block 5
Target: RING finger protein unkempt homolog, zinc fingers 1-6, SBP tag (UNK, Homo sapiens, UniProt Q9C0B0, residues 30-357)
Sequence of UniProt Q9C0B0 (30-357, looked up): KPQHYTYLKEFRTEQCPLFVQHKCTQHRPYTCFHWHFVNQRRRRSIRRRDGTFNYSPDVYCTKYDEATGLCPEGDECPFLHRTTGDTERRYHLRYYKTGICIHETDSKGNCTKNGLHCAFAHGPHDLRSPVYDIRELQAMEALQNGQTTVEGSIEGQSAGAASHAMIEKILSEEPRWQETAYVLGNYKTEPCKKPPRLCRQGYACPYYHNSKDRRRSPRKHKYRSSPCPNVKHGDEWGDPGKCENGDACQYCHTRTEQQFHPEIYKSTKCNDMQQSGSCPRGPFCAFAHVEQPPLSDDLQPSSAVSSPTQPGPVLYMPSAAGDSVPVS
Method: RNA Bind-n-Seq
Molecule type: RNA
Matrix: in vitro
Concentration: 100 nM
Setting: RNA with constant flanks, vertebrate orthologous sites, ends assumed
Reference: input RNA pool
Reading: higher = stronger binding
Shared flanks, not repeated: GGGAGUUCUACAGUCCGACGAUC … CAACAGAGGAUUGAGCAUCA
Sequence	bound/input enrichment [ratio]
GAUUUGGACCUAGGAGCCGAACCAGGGAGCUAGCAAAAGAAAAGCAGACGUGUAAAAAUAUAGCCAUGUGCAGCUGCCCAGCAGCAGUACACCAACUAGCAGCUGUGUUAAAGUAUUUAU	0.579
UAUUUUUGCACAUGACAGUGUUUGUGUUACUGAUCUCCUGAGGAAGAAGGGAGAGUGCUGUAGUGGUGGUGCCUGGGUGCCUGGCUUCCUGGCUCCCAGUGCCCCACCACCCCACCUAGC	0.692
UAGAUUUUAUAGAUGAACAGGAACAGCAGAGGCUGUUUGAGCUUUGCUUUUUAUAUUUAAAUAGAUACUUUUAUAUGAUGGGUGCUUUGAGUGUAAAUGCAGCAGACUCCAUUUCAGAGG	1.78
UUUCAAUCUCUUUUCCCCUGUCCUGAUUUUAAAAGCCCCCUCCUUUUUUUUUUCUUUUUUUAGGCAUAUGUAGUAAUAUUAGAAACAUUUAAUUUGGGAAACUUUGAUUCUUGAAAGAGA	1.23
CUCUCUGAGCGAUAGUAUUCCAUCUGUAGCAGAUUCACACUCCAGCCAUUUCUCCGAGUUCAGCUGCUCAGAUAUGGAAAGUAUGAAAACUUCCUGUAGCCAUGGCUCCAGCGACUAUCA	0.271
CUCUUUUCCAGGUUGGAUGUACUGGAAAAGUCAUAGGAAUUGAUCACAUUAAAGAGCUAGUAGAUGACUCAGUAAAUAAUGUCAGGAAGGACGAUCCAACACUUCUGUCUUCAGGGAGAG	0.676
CACAUCCGGUGAUAUUUGGCCUGGCCUUUCAGCUUAUGAUAAUAGUCCCAGAUCACCCCAUAGUCCUUCACCUAUUGCUACACCACCUAGUCAGAGUUCGUCUUGCUCUGAUGCUCCCAU	1.13
AUCUCUCAGUGACAGCAUUCCAUCUGUGGCUGACUCCCACUCGAGUCAUUUUUCUGAAUUCAGUUGCUCUGACUUGGAAAGCAUGAAGACUUCUUGUAGUCAUGGCUCCAAUGAUUAUCA	0.312

Excerpt of the above (block 2):
Sequence	RBNS enrichment (R)
UGAGGCUACCCAGAGCCGGCGGGAGGACAGGAGACUGUGGGAUGUGGUCCAGGGGCCGCGGAGUGGUUUGGGGGGGAAAAGAGAUUUUUUUCUUCUCUUAAUGGGAAUCG	0.638
AGGCCAUAUGUAAAAACCCUUCCAAUGCCUAAGUGUCUUUCUCCUGCAACUCCAAACCCAGACUCGCCACUUUGGGUGCACAGGUGGUUAGGUCAGCCAACUGGUUCUGC	0.428
AACUCCAAAAGUGCCUUAAAGCCAGGUUUGUGUCUCCUUUCAGGAGAGAGCGUGUAACGUCAGAUUUGUGCCUGUCUCGAACAUUCUGUCCUAAUCAUACUUAAACAUCA	0.773
GUUGUGCAGUUUCAUAGAUGGGUCAGGAGGUGGACAAGUUGGGGCCAGAGAUGAUGGCAGUCCAGCAGCAACUCCCUGUGCUCCCUUCUCUUUGGGCAGAGAUUCUAUUU	0.567
GCUCAACGGUGUGCCAGCUUCUGGGUCAUUCUAUGGGCAAAGAUGCUGCCUUAGUUCAGGUUUGUCAGAAGCAGGGUCUGGAAUGGGGCUUCAGCGAGGGAGUCAGGGAA	0.639
